# Published values of several laboratories.
# Every numbered part comes from another study and shows a few of its results, in no order. Substitutions count along the parent as printed.

# Sample 1
# Target: CREB3L1, bZIP domain (human)
# Technique: DHFR protein complementation
# Sample: yeast
# Setting: single substitutions, most at no-binding floor
# Relative to: wild-type JUN-FOS pair
# Reading: higher = stronger binding
# Parent: JUN, bZIP domain (human); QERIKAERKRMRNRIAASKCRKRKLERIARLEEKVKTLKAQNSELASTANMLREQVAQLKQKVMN; partner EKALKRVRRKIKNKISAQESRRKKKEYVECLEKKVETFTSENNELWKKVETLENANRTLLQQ
Variant,binding fitness [natural log]
E33G,-1.45
L31Q,-1.48
V35F,-1.57
K36T,-1.34
K34M,-1.47
E33S,-1.44
M51Q,-1.46
A46I,-1.34
S47C,-1.37
E32I,-1.54
L45Y,-1.55
M51P,-1.46
A40P,-1.47
E54R,-1.51
L52T,-1.49
I28C,-1.34
S43T,-1.31
I28L,-1.44
Q41K,-1.53
A46E,-1.2
T37E,-1.43
V56E,-1.43

# Sample 2
# Target: Centromere-binding protein 1, full length, His-tagged (CBF1, Saccharomyces cerevisiae, UniProt P17106, residues 1-351)
# Sequence of UniProt P17106 (whole entry, looked up): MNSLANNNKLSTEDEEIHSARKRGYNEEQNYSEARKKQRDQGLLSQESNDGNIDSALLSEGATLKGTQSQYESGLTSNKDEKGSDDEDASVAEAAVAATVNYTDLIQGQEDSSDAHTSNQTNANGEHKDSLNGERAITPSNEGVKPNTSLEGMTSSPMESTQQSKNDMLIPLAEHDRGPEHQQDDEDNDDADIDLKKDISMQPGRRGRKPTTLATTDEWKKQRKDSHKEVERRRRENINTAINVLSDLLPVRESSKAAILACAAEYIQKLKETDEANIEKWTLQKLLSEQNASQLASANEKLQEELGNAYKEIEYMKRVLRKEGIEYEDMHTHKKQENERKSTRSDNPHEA
# Technique: competition protein-binding microarray
# Molecule type: double-stranded DNA, one strand shown
# Sample: in vitro
# Tested at: 2 µM
# Setting: whole 60-bp probe, lowest competitor level
# With: Pho4 competitor, 0.05 µM
# Reading: higher = stronger binding
Strand,fluorescence intensity [a.u.]
CGTCCTAGTGATTGTCACAGCACTTCCATGAGGAAGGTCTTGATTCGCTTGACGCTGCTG,91
GATGTTTCCGTCACCGACATGACAATAACCACTTGAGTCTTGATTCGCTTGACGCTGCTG,87.4
GGTAAGAAAAACCGACGCGTGGCCGACATCGAGTAGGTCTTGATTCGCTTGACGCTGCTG,78.4
TGCGCAACAACTTTTCACGTGACGTTATGTCTAGAAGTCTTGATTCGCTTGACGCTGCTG,4700
CTTTCCCGATCTTGTAGCGTGGGTGTAGCACATTTGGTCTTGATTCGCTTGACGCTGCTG,74.3
CAGAACCTGCTAAAGCACGTGATGGGAGAAAATCAAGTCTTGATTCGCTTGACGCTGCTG,6390
CTTCTGTAAATTTGTTTCGTGGGTGGACGCGCCCCGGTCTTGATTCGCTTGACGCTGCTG,79.6
TTGCCGCAGAAGAGTCACGTGATGGGCACTCTTACTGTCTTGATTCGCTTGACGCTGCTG,15100
AAAGCGGTAATTTGTCACAGCACTTCACATATCTATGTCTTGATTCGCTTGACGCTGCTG,87.3
TCGAAGAAACGAATTCACCTGATTGCAGCTGTAAAAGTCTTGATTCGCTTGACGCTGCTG,120
TGTTCAAGTGCTTTTCACGTGTAGGATTACTTAACCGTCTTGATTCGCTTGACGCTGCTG,863
CTAACGAAGGTTTTTCACGTGTCTTACAAGCCAAGTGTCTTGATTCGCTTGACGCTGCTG,948
TACAGAACCCAGATACACATGTAAACAACGAGCATCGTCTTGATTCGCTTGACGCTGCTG,74.7
CGTCCTAGTGATTGTCACCACACTTCCATGAGGAAGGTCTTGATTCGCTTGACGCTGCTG,95.9
AAAGCGGTAATTTGAGGTGTGGGTGCAGATATCTATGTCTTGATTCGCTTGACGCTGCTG,70.5
CTTTCCCGATCTTGGATCGTGGGTGTAGCACATTTGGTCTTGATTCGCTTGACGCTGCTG,87.9
AAATTACTAAGTTGTATCGTGGGTGACGCCGTATGAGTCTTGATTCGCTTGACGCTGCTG,102
CGGGGTTAAGTTTGCAGCGTGGGTGGCTTGCAGCAGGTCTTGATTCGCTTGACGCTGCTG,62.2

# Sample 3
# Target: CCNE2, cyclin fold, Cln2 fusion (human)
# Technique: yeast growth competition, sequencing
# Sample: yeast
# Setting: strong parent motif
# Relative to: not given
# Reading: higher = stronger binding
# Parent: INSM1 docking peptide (human); PKAIRKLHFEDEV; partner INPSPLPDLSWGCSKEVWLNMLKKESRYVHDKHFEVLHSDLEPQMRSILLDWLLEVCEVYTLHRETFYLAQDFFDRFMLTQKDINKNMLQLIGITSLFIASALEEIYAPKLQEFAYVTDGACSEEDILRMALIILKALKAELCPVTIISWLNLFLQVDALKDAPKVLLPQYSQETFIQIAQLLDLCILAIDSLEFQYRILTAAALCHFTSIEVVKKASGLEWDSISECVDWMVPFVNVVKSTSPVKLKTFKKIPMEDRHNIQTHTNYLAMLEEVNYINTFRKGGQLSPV
Variant,normalised enrichment score
E10K,0.795
R5G,-0.15
I4M,1.24
I4S,0.605
D11I,1.65
E12R,1.83
E10S,1.55
R5T,0.00583
K6L,0.226
D11W,1.5
E12I,1.79
K6Y,0.683
F9E,-0.19
A3Q,0.627
K2L,0.766
A3H,3.13
L7S,0.214
A3S,0.327
L7G,0.045
E10Q,0.98
F9D,0.207

# Sample 4
# Target: ABI1, truncated, D143A, DHFR fusion (Arabidopsis thaliana)
# Technique: DHFR PCA, deep sequencing
# Sample: yeast
# Setting: methotrexate growth selection, single substitutions
# With: (+)-ABA 58 µM
# Relative to: wild-type fitted maximum
# Reading: higher = stronger binding
# Parent: PYL1, truncated, DHFR fusion (Arabidopsis thaliana); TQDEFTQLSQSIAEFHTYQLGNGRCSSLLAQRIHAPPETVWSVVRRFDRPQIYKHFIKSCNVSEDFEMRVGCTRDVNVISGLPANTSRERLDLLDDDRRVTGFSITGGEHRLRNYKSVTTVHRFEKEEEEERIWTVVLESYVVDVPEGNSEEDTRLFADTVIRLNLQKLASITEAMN; partner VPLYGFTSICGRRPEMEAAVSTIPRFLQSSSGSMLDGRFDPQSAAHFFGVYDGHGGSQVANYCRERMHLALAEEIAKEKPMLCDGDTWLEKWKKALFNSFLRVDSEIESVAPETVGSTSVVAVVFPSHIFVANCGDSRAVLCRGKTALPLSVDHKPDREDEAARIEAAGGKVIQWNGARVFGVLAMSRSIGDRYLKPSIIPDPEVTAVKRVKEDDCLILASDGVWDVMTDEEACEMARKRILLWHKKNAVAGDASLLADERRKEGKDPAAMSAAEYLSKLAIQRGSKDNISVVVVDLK
Variant,relative binding score
E4D,86.4%
F157K,3.1%
R88L,78.2%
R24E,85.5%
E151P,84.3%
G23T,75.7%
W41C,8.29%
R90I,57.6%
R99P,-5.17%
A170P,0.949%
E14C,61.1%
L94Y,81.2%
D97L,78.9%
T101V,82.1%
R111A,29.2%
I79M,73.1%
D92E,75.8%
N77P,5.25%
H55T,91%
R163V,33.4%
I57S,-5.6%
N77W,78.5%
N22Q,97.9%

# Sample 5
# Target: Histone acetyltransferase KAT6A, winged helix 2, GST fusion (KAT6A, Homo sapiens, UniProt Q92794, residues 85-181)
# Technique: protein binding microarray
# Molecule type: double-stranded DNA, one strand shown
# Sample: in vitro
# Tested at: not given
# Setting: 8-mer, flanks averaged, mean of 2 arrays, mostly near background
# Relative to: not given
# Reading: higher = stronger binding
# Target sequence (chain): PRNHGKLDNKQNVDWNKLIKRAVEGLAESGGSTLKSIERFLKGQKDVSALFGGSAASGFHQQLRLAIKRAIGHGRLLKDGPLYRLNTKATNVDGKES
Strand,E-score
ATGGTAAT,-0.131
GGTATCAA,-0.139
ACAAGGTC,-0.0447
GGACTTGA,-0.124
AATGGATA,-0.142
CTTGCAGA,0.147
CGATTGCA,0.0183
CAATGGGA,-0.0482
TGAAATAA,-0.0547
ACCATCGA,-0.0673
CCAGTAGG,-0.0891
CCGAAATC,0.135
TAGACATA,-0.0101
GAGGGACA,0.0457
AGCATATG,-0.0978
GGCGAGCA,0.0393
CTCTGCGA,0.07
AAGGAGAG,-0.172

# Sample 6
# Target: Interferon regulatory factor 3, full length, phosphomimetic (IRF3, Homo sapiens, UniProt Q14653, residues 1-427, S386D/S396D/S398D/S402D/T404D/S405D)
# Technique: protein-binding microarray
# Molecule type: double-stranded DNA, one strand shown
# Sample: in vitro
# Tested at: 2540 nM top
# Setting: 60-bp whole probe
# With: salmon DNA 0.4 mg/ml
# Relative to: random background probes
# Reading: higher = stronger binding
# Shared flanks, not repeated: GCCTAGCAC … GTCTTGATTCGCTTGACGCTGCTG
# Target sequence (chain): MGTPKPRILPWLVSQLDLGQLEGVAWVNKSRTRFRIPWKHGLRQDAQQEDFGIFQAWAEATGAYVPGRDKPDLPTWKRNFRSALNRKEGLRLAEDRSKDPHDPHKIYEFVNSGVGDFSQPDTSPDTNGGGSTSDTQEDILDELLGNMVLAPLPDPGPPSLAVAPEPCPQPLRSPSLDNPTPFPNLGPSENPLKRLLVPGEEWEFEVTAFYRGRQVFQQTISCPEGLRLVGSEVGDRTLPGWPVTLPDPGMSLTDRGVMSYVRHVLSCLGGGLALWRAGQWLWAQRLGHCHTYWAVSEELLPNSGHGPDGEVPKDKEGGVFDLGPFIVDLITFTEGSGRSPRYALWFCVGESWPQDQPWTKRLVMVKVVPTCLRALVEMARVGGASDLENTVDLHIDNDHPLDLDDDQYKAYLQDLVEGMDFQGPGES
Strand,fitted relative affinity [z-score]
CTTTCTTTATGTACTCTCTCCGTGCTA,5.16
CTGGTTTTTACTTTCTGAATGTGCTAG,2.78
TTAGATATCAGTCTCGACTAGTGCTAG,0.941
TCAGCTTTGCCTTTTGCACTGTGCTAG,0.376
TTAGATTCAAGTTTCGATTAGTGCTAG,2.78
TCACTCTCTCTATTCTGTGGGTGCTAG,1.47
GACGAACAGGGGTTTCGAGACGTGCTA,0.552
GACGATTTCGGTCTCGGGACGTGCTAG,4.53
TTAGGTATCGGGACTGGGTTAGTGCTA,1.16
GTAGTTTTCATTATTGTTTCGTGCTAG,3.58
TTAGGACTGGGGTATCGGGTAGTGCTA,-0.625
TTAGATTTCGGGACTGTATTAGTGCTA,1.28
GACGGTTTCGGTCTCGGGATGTGCTAG,8.25
GAGACTCTAATATTGAGACTGTGCTAG,-0.418
GACGGTTTCGCGTATCGGGACGTGCTA,2.38
TTAGGTCTGGGGTTTCGGTTAGTGCTA,1.99
GACGGACTGGGTTTCAGGACGTGCTAG,0.193
TCCACTTTCTTAATGCTTCTGTGCTAG,2.2
TTAGGTATCGGTATCGGATAGTGCTAG,5.18
GCCGGTTTCCTTTCCCTGACGTGCTAG,9.99
TCCCAATTCTCTTTTCACTTGTGCTAG,2.33
TTAGATATCAGTGTCGATTAGTGCTAG,0.708
GAGGATATCGGGTATCGAGACGTGCTA,-0.31

# Some of these lines once more (sample 5):
Strand,E-score
CTTGCAGA,0.147
GAGGGACA,0.0457
GGACTTGA,-0.124
CTCTGCGA,0.07
ACCATCGA,-0.0673
CCAGTAGG,-0.0891
CCGAAATC,0.135
TAGACATA,-0.0101
ACAAGGTC,-0.0447
AAGGAGAG,-0.172
GGTATCAA,-0.139
AGCATATG,-0.0978
